Assay results gathered from unrelated publications.
Every numbered part comes from another study and shows a few of its results, in no order.

Block 1
Target: Interferon regulatory factor 7, full length, phosphomimetic (IRF7, Homo sapiens, UniProt Q92985, residues 1-503, S471D/S472D/S475D/S476D/S477D/S483D/S484D/S487D)
UniProt Q92985, sequence (whole entry, unmodified, looked up): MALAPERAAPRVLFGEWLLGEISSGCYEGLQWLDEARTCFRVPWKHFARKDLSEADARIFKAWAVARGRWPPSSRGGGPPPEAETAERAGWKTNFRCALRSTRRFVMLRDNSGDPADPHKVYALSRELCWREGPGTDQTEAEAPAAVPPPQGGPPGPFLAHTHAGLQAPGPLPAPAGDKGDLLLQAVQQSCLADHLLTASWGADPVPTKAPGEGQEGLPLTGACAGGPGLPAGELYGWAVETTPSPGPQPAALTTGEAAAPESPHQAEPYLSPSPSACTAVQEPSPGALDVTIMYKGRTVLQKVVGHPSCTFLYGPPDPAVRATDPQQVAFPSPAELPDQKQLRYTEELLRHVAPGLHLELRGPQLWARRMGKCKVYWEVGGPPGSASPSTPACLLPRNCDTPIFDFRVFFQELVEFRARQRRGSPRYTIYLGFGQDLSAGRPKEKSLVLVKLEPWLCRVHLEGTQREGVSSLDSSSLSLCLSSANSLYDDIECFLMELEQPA
Method: protein-binding microarray
Molecule type: double-stranded DNA, one strand shown
Medium: in vitro
Tested at: 2200 nM top
Setting: 60-bp whole probe
Added: salmon DNA 0.4 mg/ml
Reference: random background probes
Direction: higher = stronger binding
Constant ends, left off below: GCCTAGCAC … GTCTTGATTCGCTTGACGCTGCTG
| Sequence | fitted relative affinity |
| --- | --- |
| TTAGAACTGAGTTTCGTTTAGTGCTAG | 4.68 z-score |
| TCACCTTGGGCTCTAGGACTGTGCTAG | 0.214 z-score |
| ATATATATCATTTAATTATAGTGCTAG | 0.382 z-score |
| TCCTTTATGTCCTGTCTACATGTGCTA | 2.16 z-score |
| CCTTTTATGGTATTTTTTTCGTGCTAG | 2.21 z-score |

Block 2
Target: Centromere-binding protein 1, full length, His-tagged (CBF1, Saccharomyces cerevisiae, UniProt P17106, residues 1-351)
UniProt P17106, sequence (whole entry, looked up): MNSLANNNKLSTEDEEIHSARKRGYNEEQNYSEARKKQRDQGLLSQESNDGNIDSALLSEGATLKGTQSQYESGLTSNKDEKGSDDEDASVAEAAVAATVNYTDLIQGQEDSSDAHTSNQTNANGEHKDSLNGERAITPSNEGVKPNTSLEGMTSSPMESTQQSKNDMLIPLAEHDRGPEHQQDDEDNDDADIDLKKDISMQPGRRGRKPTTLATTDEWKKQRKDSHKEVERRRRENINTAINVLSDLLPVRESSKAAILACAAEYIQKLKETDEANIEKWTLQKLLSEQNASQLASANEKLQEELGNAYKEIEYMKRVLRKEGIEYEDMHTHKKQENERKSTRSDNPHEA
Method: competition protein-binding microarray
Molecule type: double-stranded DNA, one strand shown
Medium: in vitro
Tested at: 2 µM
Setting: whole 60-bp probe, lowest competitor level
Added: Pho4 competitor, 0.05 µM
Direction: higher = stronger binding
| Sequence | fluorescence intensity [a.u.] |
| --- | --- |
| CGAGATATGGCTAGACACATGGCCACAATAATATCTGTCTTGATTCGCTTGACGCTGCTG | 141 |
| GTCTTGTCTCATTTTCACGTGTAGTTCCCCACTTCAGTCTTGATTCGCTTGACGCTGCTG | 684 |
| TCCAAAACACAGGGGCACGTGCATCCTTGTGGCACTGTCTTGATTCGCTTGACGCTGCTG | 1950 |
| TCTTCCGCGATGTTTCTCGTGGTGAGGCTATGGGCAGTCTTGATTCGCTTGACGCTGCTG | 63.4 |

Further values, each from its own experiment
UNK zinc fingers 1-6, GST-SBP tag: RING finger protein unkempt homolog, zinc fingers 1-6, GST-SBP tag (UNK, Homo sapiens, UniProt Q9C0B0, residues 30-357)
UniProt Q9C0B0, sequence (30-357, looked up): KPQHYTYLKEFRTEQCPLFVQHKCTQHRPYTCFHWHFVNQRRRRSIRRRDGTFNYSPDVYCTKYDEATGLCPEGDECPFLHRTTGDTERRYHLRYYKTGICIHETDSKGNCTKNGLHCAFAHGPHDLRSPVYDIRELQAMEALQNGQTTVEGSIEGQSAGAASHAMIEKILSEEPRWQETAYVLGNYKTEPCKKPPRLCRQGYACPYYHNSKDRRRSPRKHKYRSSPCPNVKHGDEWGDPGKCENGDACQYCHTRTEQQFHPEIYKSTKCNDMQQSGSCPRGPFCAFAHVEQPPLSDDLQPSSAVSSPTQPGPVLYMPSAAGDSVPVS
| Molecule | target | test | system | conditions | scale | measurement | result |
| --- | --- | --- | --- | --- | --- | --- | --- |
| GGGAGUUCUACAGUCCGACGAUCGACAUCUGUCGUAGAAACCUCGAUAUUGAGCGUCCAACCUAUACUAACCUGAAUAGGUUAAUAGGUCAAAUUGUGUCCUCCAUCACUGCUUCCCUGAGAUUUGAUGGAGCCCUGAAUGUUCAACAGAGGAUUGAGCAUCA | UNK zinc fingers 1-6, GST-SBP tag | RNA Bind-n-Seq | RNA, in vitro | not given, RNA with constant flanks, human and mouse sites, ends assumed | reference: input RNA pool, higher = stronger binding | bound/input enrichment | 0.108 ratio |
| PhoQ, residues 284 288 289 292 302 303 ASVMEA | PhoP, residues 12 14 15 18 19 DLLYY (Escherichia coli, UniProt P23836) | Sort-seq, measured: YFP reporter | E. coli | PhoQ-PhoP variant library, added: 10 µM Mg2+ | reference: high Mg2+ state, higher = stronger signaling | fold induction | 1.92 |
| GGGAGUUCUACAGUCCGACGAUCGGUGGGGUGGUCAUUGCCGUUUGAGCUGCUGAUUUUCAUGAGUCGCCUUCAAAACUCUCGUGUAGGGUUGACAAUGUGGGGGGGUGGGGGAUCCAGCUUAUUCUUUUAUUUUCAAGUCCACAACAGAGGAUUGAGCAUCA | UNK zinc fingers 1-6, GST-SBP tag | RNA Bind-n-Seq | RNA, in vitro | not given, RNA with constant flanks, human and mouse sites, ends assumed | reference: input RNA pool, higher = stronger binding | bound/input enrichment | 0.445 ratio |

Excerpt of the above (further values, each from its own experiment):
| Molecule | target | test | system | conditions | scale | measurement | result |
| --- | --- | --- | --- | --- | --- | --- | --- |
| PhoQ, residues 284 288 289 292 302 303 ASVMEA | PhoP, residues 12 14 15 18 19 DLLYY (Escherichia coli, UniProt P23836) | Sort-seq, measured: YFP reporter | E. coli | PhoQ-PhoP variant library, added: 10 µM Mg2+ | reference: high Mg2+ state, higher = stronger signaling | fold induction | 1.92 |
